Measurements of several laboratories.
Lines come from different studies, so protocols differ. “And” joins repeats or separate records; there may be more than shown. Numbers after ± are the reported error.
U2AF2: U2AF2 148-342 (Homo sapiens, UniProt P26368)
UniProt P26368, sequence (whole entry, looked up): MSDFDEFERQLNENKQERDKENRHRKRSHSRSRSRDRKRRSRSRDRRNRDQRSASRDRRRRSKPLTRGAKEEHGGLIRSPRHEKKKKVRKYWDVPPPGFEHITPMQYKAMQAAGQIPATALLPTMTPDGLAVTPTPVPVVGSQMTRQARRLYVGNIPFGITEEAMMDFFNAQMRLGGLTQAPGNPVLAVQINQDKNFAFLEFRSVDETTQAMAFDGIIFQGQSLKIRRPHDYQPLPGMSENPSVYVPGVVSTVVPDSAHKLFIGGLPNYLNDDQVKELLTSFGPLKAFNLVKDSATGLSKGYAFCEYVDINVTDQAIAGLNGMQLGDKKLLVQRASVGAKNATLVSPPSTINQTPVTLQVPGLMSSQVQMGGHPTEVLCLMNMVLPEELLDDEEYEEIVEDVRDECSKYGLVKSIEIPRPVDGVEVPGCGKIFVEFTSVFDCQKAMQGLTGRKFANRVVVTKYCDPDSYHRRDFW
B1: human RBBP7; sequence looked up; chain ASKEMFEDTVEERVINEEYKIWKKNTPFLYDLVMTHALQWPSLTVQWLPEVTKPEGKDYALHWLVLGTHTSDEQNHLVVARVHIPNDDAQFDASHCDSDKGEFGGFGSVTGKIECEIKINHEGEVNRARYMPQNPHIIATKTPSSDVLVFDYTKHPAKPDPSGECNPDLRLRGHQKEGYGLSWNSNLSGHLLSASDDHTVCLWDINAGPKEGKIVDAKAIFTGHSAVVEDVAWHLLHESLFGSVADDQKLMIWDTRSNTTSKPSHLVDAHTAEVNCLSFNPYSEFILATGSADKTVALWDLRNLKLKLHTFESHKDEIFQVHWSPHNETILASSGTDRRLNVWDLSKIGEEQSAEDAEDGPPELLFIHGGHTAKISDFSWNPNEPWVICSVSEDNIMQIWQMAENIYNDEESDVTTSELEGQGS

For `cotadutide`, the metabolite level was 1.05 ± 0.04 scaled intensity (metabolomics, measured: hepatic threonine; ob/ob mice on AMLN diet, NASH model, liver; dose not given).
With `Polymyxin B` the membrane depolarisation was 459 a.u. and 528 a.u. and 604 a.u. (Staphylococcus aureus; DiSC3(5) fluorescence; concentration not given, 72 min; higher = more depolarisation).
`GSGAGICTIV`: “normalised SPR binding response” 6.6 normalised RU (construct, MBP fusion, human SCRIB, PDZ 3-4; surface plasmon resonance; peptide; concentration not given; higher = stronger binding).
`B1 (human RBBP7)` — result for “log2 fold change”: -0.61 (CYB5R4 knockout human cells; PP6 interaction, 3xFLAG-PP6C IP-MS; concentration not given; relative to: CYB5R4 KO over parental).
For `human ME2 M75L`, the Hill coefficient was 1.1 ± 0.05 (enzyme activity, NADH absorbance; with fumarate 3 mM, together with: L-malate varied).
The binding intensity of `GSGAGKETSF` is reported as 0.638 (construct, MBP fusion, human SCRIB, PDZ 3-4; automated holdup; peptide, crude extract; concentration not given, corrected by standard peak, unit not given; relative to: biotin control resin, higher = stronger binding).
With `Peginesatide` the mRNA level was 9.8 fold (UT7/EPO; RT-qPCR, measured: CCL2; concentration not given, 90 min, normalized to HPRT1; relative to: vehicle).
`MTVCNASQRQAHAQATAVSL` has a selectivity ratio of 0.36 ± 0.21 (H1264 lung adenocarcinoma; phage binding output/input; peptide; relative to: control phage).
For `GSGAGKETEC`, the binding intensity was 0.188 (construct, MBP fusion, human SCRIB, PDZ 3-4; automated holdup; peptide, purified PDZ protein; concentration not given, unit not given; relative to: biotin control resin, higher = stronger binding).
`plectin (human)` — result for “log2 fold change”: 0.78 (CYB5R4 knockout human cells; PP4 interaction, 3xFLAG-PP4C IP-MS; concentration not given; relative to: CYB5R4 KO over parental).
`AGGUCCUUUCUUCUAGUGA (ssRNA)` gave a Kd of 7.8 ± 1.26 µM (U2AF2; MST; RNA).
Under “log2 fold change”, `human TAF12` is recorded as -2.42 (PP6C (human); co-immunoprecipitation, IP-MS; CYB5R4 knockout cells; concentration not given; relative to: CYB5R4 knockout over parental).
With `AGGCUGAUAUUUCUUUGAG (ssRNA)` the Kd was 3.37 ± 0.502 µM (U2AF2; ITC; RNA).
`human AHSA1` — result for “log2 fold change”: -3.88 (CYB5R4 knockout human cells; PP4 interaction, 3xFLAG-PP4C IP-MS; concentration not given; relative to: CYB5R4 KO over parental).
For `colistin`, the MIC was ≤ 0.5 µg/mL (Escherichia coli; broth microdilution; clinical isolate RKI-No_581/16).

For quick reference, copied from above:
Under “log2 fold change”, `human TAF12` is recorded as -2.42 (PP6C (human); co-immunoprecipitation, IP-MS; CYB5R4 knockout cells; concentration not given; relative to: CYB5R4 knockout over parental).
With `AGGCUGAUAUUUCUUUGAG (ssRNA)` the Kd was 3.37 ± 0.502 µM (U2AF2; ITC; RNA).
